# Earlier results, collected from citations in different studies.
# Each line is one published result; not all experiments were run side by side.
SMILES,tested on,assay,system,conditions,endpoint,value
CO/N=C(\C(=O)N[C@@H]1C(=O)N2C(C(=O)O)=C(COC(C)=O)CS[C@H]12)c1csc(N)n1,Escherichia coli,,ATCC BAA-2469,,MIC,512 µg/mL
CCOc1cc(C(C)(C)C)ccc1C1=N[C@@](C)(c2ccc(Cl)cc2)[C@@](C)(c2ccc(Cl)cc2)N1C(=O)N1CCN(CCCS(C)(=O)=O)CC1,,,"human, AML","dose not given, phase Ib, added: cytarabine",complete response rate,17%
CC(C)(C)c1cc(O)ccc1O,,,plasma,literature value,fraction unbound,0.05
COc1ccc2cc(OCC3(C(=O)O)CN(C(=O)c4ccc(F)cc4)C3)ccc2c1,LTB4R,,,,IC50,9.7 µM
Oc1c(Cl)cc(Cl)cc1Sc1cc(Cl)cc(Cl)c1O,,,human,oral,maximum safe dose,25 mg/kg/day
Cc1nccn1CC1CCc2c(c3ccccc3n2C)C1=O (stereo not drawn),5-HT3 receptor,,,,koff,0.00967 s⁻¹
C[C@H]1COc2c(N3CCN(C)CC3)c(F)cc3c(=O)c(C(=O)O)cn1c23,Escherichia coli,,ATCC 25922,,MIC,0.008 to 0.06 µg/mL
O=C(O)Cc1ccccc1Nc1c(Cl)cccc1Cl,,,plasma,literature value,fraction unbound,0.01
Fc1ccc([C@@H]2CCNC[C@H]2COc2ccc3c(c2)OCO3)cc1.O=C(O)/C=C\C(=O)O,Toxoplasma gondii,parasite growth,,"concentration not given, published screen",activity class,inactive

# Some of these lines once more:
SMILES,tested on,assay,system,conditions,endpoint,value
CO/N=C(\C(=O)N[C@@H]1C(=O)N2C(C(=O)O)=C(COC(C)=O)CS[C@H]12)c1csc(N)n1,Escherichia coli,,ATCC BAA-2469,,MIC,512 µg/mL
